Results gathered from unrelated publications.
Lines come from different studies, so protocols differ. ± marks the error that the study gave.
Route: oral

SMILES | host | matrix | dose | time | notes | AUC(0-t)
CNc1nc(Nc2ccc(-n3cnc(C)n3)c(OC)c2)nc2c1CC[C@H]2c1ccc(F)cc1 | human | – | 100 mg once daily | day 1 | multiple ascending dose | 2910 ng·h/mL
CC(C)NC[C@@H](C(=O)N1CCN(c2ncnc3c2[C@H](C)C[C@H]3O)CC1)c1ccc(Cl)cc1 | human, Mild hepatic function | plasma | 100 mg single dose | – | NCI classification, geometric mean | 414 ng·h/mL
C=CC(=O)Nc1cc(Nc2ncc(C(=O)OC(C)C)c(-c3cn(C)c4ccccc34)n2)c(OC)cc1N(C)CCN(C)C | human, fasted | – | 80 mg single dose | – | arithmetic mean | 301 ng·h/mL
Cc1[nH]c(/C=C2\C(=O)Nc3ccccc32)c(C)c1CCC(=O)O | human patients | – | 500 mg/m^2 twice daily | – | after meal, dose 55 | 34100 ± 12400 ng·h/mL
C=C(C)[C@@H]1CC[C@]2(NCCN3CCS(=O)(=O)CC3)CC[C@]3(C)[C@H](CC[C@@H]4[C@@]5(C)CC=C(C6=CC[C@@](CF)(C(=O)O)CC6)C(C)(C)[C@@H]5CC[C@]43C)[C@@H]12 | healthy human volunteers | plasma | 200 mg | – | tablet, moderate-fat state, geometric mean | 37900 ng·h/mL
CC(=O)c1c(C)c2cnc(Nc3ccc(N4CCNCC4)cn3)nc2n(C2CCCC2)c1=O | human | – | 95 mg/m^2 repeated doses | day 21 | – | 2290 ng·h/mL
COc1cccc(-c2ccc(NC(=O)C3=C(C(=O)O)CCC3)c(F)c2)c1 | human, male | plasma | 50 mg once daily | day 13 | geometric mean, not pre-dosed | 310000 ng·h/mL
Cc1ccc(NC(=O)c2ccc(CN3CCN(C)CC3)cc2)cc1Nc1nccc(-c2cncc(-c3oncc3C)c2)n1 | older healthy human adults | plasma | 37.5 mg single dose | – | fed, mean | 30400 ng·h/mL
